Experimental data collected from several papers.
Each numbered part is a random draw from the data of one study; scales do not carry over between parts. Values joined by “and” are separate records of one study, mostly repeats; a detail may differ.
Chain of UniProt P35372 (whole entry, looked up): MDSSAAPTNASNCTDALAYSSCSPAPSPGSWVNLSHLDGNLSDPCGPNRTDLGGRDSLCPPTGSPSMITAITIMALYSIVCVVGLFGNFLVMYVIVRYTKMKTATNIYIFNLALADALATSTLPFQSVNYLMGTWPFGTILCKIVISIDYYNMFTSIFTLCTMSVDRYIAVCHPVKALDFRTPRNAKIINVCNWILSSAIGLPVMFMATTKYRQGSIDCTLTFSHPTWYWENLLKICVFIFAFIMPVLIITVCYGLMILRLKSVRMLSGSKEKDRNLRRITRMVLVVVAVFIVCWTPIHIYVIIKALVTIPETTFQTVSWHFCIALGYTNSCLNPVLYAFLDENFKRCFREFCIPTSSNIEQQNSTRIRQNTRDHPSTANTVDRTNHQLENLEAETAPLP

Series 1
Cell line: mouse MPNST tumor cells
Technique: high-content immunofluorescence imaging
Measured: nuclear SOX9
Tested at: 10 µM
Time: 12 h
Setting: mean of 2 replicates
Relative to: DMSO control
Reading: higher = more nuclear SOX9
SMILES | nuclear SOX9 intensity
CC(C)CC(=O)N[C@H](C(=O)N[C@H](C(=O)N[C@@H](CC(C)C)[C@@H](O)CC(=O)N[C@@H](C)C(=O)N[C@@H](CC(C)C)[C@@H](O)CC(=O)O)C(C)C)C(C)C | 97.1 % of DMSO
O=C(O)CCC=CCC1COC(c2ccccc2Cl)OC1c1ccccc1O (centres unmarked) | 95.2 % of DMSO
N#Cc1c[nH]c2c(C(=O)N3CCN(CCc4ccc(F)cc4)CC3)cccc12 | 99.3 % of DMSO
OCC(CO)N[C@H]1C[C@](O)(CO)[C@@H](O)[C@H](O)[C@H]1O | 117 % of DMSO
COc1ccc2c(NC(=O)Nc3cccc(C(F)(F)F)n3)ccnc2c1 | 71.2 % of DMSO
Cc1ccccc1NC(=O)Nc1ccc(CC(=O)N(C)[C@@H](CC(C)C)C(=O)NCC[C@H](NC(=O)[C@@H]2CCCN2S(=O)(=O)c2cc(Cl)cc(Cl)c2)C(=O)O)cc1 | 94.6 % of DMSO
CCCCc1ccc2[nH]c(NC(=O)OC)nc2c1 | 210 % of DMSO
N[C@@H](Cc1cc(CP(=O)(O)O)cc(-c2ccccc2Cl)c1)C(=O)O | 102 % of DMSO

Series 2
Target: Calcium/calmodulin-dependent protein kinase type II subunit alpha (CAMK2A, Homo sapiens, UniProt Q9UQM7)
Chain of UniProt Q9UQM7 (whole entry, looked up): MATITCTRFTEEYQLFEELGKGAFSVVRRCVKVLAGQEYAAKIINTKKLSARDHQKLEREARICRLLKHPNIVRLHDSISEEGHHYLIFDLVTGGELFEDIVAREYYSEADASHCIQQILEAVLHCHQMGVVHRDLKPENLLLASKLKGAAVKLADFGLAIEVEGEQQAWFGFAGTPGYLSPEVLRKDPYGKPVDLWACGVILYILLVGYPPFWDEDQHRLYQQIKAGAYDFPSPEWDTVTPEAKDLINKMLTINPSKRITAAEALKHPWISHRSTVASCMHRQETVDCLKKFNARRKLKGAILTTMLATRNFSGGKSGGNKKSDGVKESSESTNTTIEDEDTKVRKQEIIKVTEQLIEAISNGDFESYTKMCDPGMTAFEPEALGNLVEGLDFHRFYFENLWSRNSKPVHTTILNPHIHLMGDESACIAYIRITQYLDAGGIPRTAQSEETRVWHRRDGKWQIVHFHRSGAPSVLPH
Observed: enzyme activity
Mode: inhibitor
Tested at: 10 µM
Compound | inhibition [%]
CC1(C)[C@H]2CC=C(C=O)[C@@H]1C2 | -3
Cn1cnc2[nH]c(=O)[nH]c(=O)c21 | -33
O=C[C@H](O)[C@@H](O)[C@H](O[C@H]1O[C@H](CO)[C@@H](O[C@H]2O[C@H](CO)[C@@H](O[C@H]3O[C@H](CO)[C@@H](O[C@H]4O[C@H](CO)[C@@H](O[C@H]5O[C@H](CO)[C@@H](O)[C@H](O)[C@H]5O)[C@H](O)[C@H]4O)[C@H](O)[C@H]3O)[C@H](O)[C@H]2O)[C@H](O)[C@H]1O)[C@H](O)CO | 1
CO[C@H]1C[C@@H]2CC[C@@H](C)[C@@](O)(O2)C(=O)C(=O)N2CCCC[C@H]2C(=O)O[C@H]([C@H](C)C[C@@H]2CC[C@@H](OCCO)[C@H](OC)C2)CC(=O)[C@H](C)/C=C(\C)[C@@H](O)[C@@H](OC)C(=O)[C@H](C)C[C@H](C)/C=C/C=C/C=C/1C | 7
CN1CC(=O)NC1=O | -14
CCCCCCCCCCCCCC(=O)O[C@H]1CC[C@@]2(C)C(=CC[C@H]3[C@@H]4CC[C@H]([C@H](C)CCCC(C)C)[C@@]4(C)CC[C@@H]32)C1 | 5
CCOC(=O)O[C@]1(C(=O)OCCl)CC[C@H]2[C@@H]3CCC4=CC(=O)C=C[C@]4(C)[C@H]3[C@@H](O)C[C@@]21C | 0
CC(C)(c1ccc(O)cc1)c1ccc(O)cc1 | 21

Series 3
Compound: CC(C)S(=O)(=O)c1ccc2nccc(Nc3ccc4sc(C5CCCC5)nc4c3)c2c1
target or system | test | system | conditions | CC50
L929 RIPK3 knockout | cell viability |  | 10% FBS, mean of 3, added: zVAD | 59.3 µM
L929 | cell viability, CCK-8 |  | 10% FBS, added: zVAD | 53.2 µM
 | CCK-8 | L929 RIPK3 knockout, mouse | MEM with 10% FBS | 56.7 µM and 59.6 µM
L929 | cell viability, CCK-8 |  | without zVAD, 10% FBS, mean of 3 | 53.2 µM
L929 | cell viability, CCK-8 |  | 10% FBS, mean of 3, added: zVAD | 53.1 µM

Further values, each from its own experiment
SMILES | target or system | test | system | conditions | measurement | result
CC(C)n1cnc(-c2ccc(F)cc2)c1-c1ncc(C(=O)Nc2ccc(N3CCN(C)CC3)cc2)[nH]1 |  |  | IPF patients | 60 mg once daily, adverse event | left bundle branch block incidence | 0%
Cc1cc(Nc2nccc(C)n2)cc(-c2cnc([C@@]3(O)CC[C@H](C(=O)O)C(C)(C)C3)s2)c1 | Mu-type opioid receptor (OPRM1, Homo sapiens, UniProt P35372) | ligand displacement |  | 10 µM | inhibition | 17.3%

A few entries again (series 1):
SMILES | nuclear SOX9 intensity
CC(C)CC(=O)N[C@H](C(=O)N[C@H](C(=O)N[C@@H](CC(C)C)[C@@H](O)CC(=O)N[C@@H](C)C(=O)N[C@@H](CC(C)C)[C@@H](O)CC(=O)O)C(C)C)C(C)C | 97.1 % of DMSO
O=C(O)CCC=CCC1COC(c2ccccc2Cl)OC1c1ccccc1O (centres unmarked) | 95.2 % of DMSO
N#Cc1c[nH]c2c(C(=O)N3CCN(CCc4ccc(F)cc4)CC3)cccc12 | 99.3 % of DMSO
